Measured values pooled from the literature.
Numbered parts are unrelated; each lists some results of a single study.

Sample 1
Target: Sal-like protein 4, full length isoform B (SALL4, Homo sapiens, UniProt Q9UJQ4-2, residues 1-616)
Method: universal PBM
Form: double-stranded DNA, one strand shown
Medium: in vitro
Concentration: not given
Notes: 8-mer, flanks averaged, mean of replicates
Direction: higher = stronger binding
| Strand | E-score |
| --- | --- |
| ATTATGTA | 0.382 |
| CTTGGACA | -0.187 |
| CCCAGGTC | -0.285 |
| AAGCGCCC | -0.292 |
| AGCCGATC | 0.0166 |
| AGCGTCTG | -0.193 |
| AAGATTAG | 0.137 |
| AGGTGCTA | 0.111 |
| ATTTGCAA | 0.224 |
| GAATCCTC | -0.198 |
| AGAGATCC | -0.0356 |
| AGTCACCG | -0.334 |
| TAGCTGAA | 0.085 |
| AATTGACC | 0.0543 |
| CCCCGCCA | -0.0628 |
| TGCCAAAA | 0.0646 |
| CATGCCGG | -0.146 |
| CCGACCAC | -0.202 |
| AACATCGA | 0.0778 |
| CCCATCTC | -0.168 |
| CCACAGCG | -0.187 |
| ATGGCGGC | -0.17 |
| ACCGCACG | -0.203 |
| ACTAGGTC | -0.14 |
| CGCAACAC | -0.0995 |

Sample 2
Target: RING finger protein unkempt homolog, zinc fingers 1-6, GST-SBP tag (UNK, Homo sapiens, UniProt Q9C0B0, residues 30-357)
UniProt Q9C0B0, sequence (30-357, looked up): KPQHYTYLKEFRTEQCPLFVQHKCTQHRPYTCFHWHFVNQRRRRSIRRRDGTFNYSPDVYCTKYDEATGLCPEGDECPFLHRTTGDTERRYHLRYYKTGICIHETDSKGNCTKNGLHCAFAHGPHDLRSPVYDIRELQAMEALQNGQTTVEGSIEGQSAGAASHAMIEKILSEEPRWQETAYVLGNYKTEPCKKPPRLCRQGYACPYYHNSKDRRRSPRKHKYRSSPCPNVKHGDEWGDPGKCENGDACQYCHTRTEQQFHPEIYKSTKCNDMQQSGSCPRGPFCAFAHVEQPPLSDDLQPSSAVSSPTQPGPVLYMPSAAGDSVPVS
Method: RNA Bind-n-Seq
Form: RNA
Medium: in vitro
Concentration: not given
Notes: RNA with constant flanks, human and mouse sites, ends assumed
Relative to: input RNA pool
Direction: higher = stronger binding
| Strand | bound/input enrichment [ratio] |
| --- | --- |
| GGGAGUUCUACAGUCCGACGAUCGUCCCAGUCUCAGACGCGGCUAAAGCGCUGGGGUCUGAGAAGGAAAGCGACCACGGUGCUUAGGUGUCUUGAAGGAUCAGAGGUACCUAAGGUUCAACCUGUCGAGGAGGCAGUGGAUAUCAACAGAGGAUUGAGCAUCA | 0.179 |
| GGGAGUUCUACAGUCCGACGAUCUCAGAUAAUUCAAGAUUUCCACUUGCAGUUGUAGAAGAACCAAUUACAGUGGAAGUGGCUUUUAGAAACCCUUUGAAAGUUCUACUUUUGUUGACUGAUUUGUCAUUGCUUUGGAAGUUUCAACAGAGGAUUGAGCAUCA | 0.224 |
| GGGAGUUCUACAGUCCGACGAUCCUGUGAGCGUCUACAGACAGCUCACCAUUUUUGUCCUGUAUCUGUAAACACUUUUUGUUCUUAGUCUUUUUCUUGUAAAAUUGAUGUUCUUUAAAAUCGUUAAUGUAUAACAGGGCUUAUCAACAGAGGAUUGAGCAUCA | 11.2 |
| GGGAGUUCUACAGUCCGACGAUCUGUAUCGCCUUUUUUAACAUCCUUAAUGAGUUAAACGACUAUGCAGGACAGCGAGAGGUAGUAGCAGAAGAAAUGGCGCACAGAGUAUAUGGUGAAUUAAUGAGAUAUGCCCAUGAUCUGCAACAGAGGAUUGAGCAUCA | 0.513 |
| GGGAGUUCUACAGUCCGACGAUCCACCCUACUCUGGGUGCCAGUGUGCUUCAUAUCACUGAAAACGGGCCAACUGAAGUGGACUAUAGUCCCUCUGAUAUCCAGGACUCUAGUUUGUCGCAUAAGAUCCCGCCAACGGAAGAGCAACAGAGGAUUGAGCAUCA | 0.177 |
| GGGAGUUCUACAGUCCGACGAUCGAAACUAUUCCUAAAGAGGAGAGAGCUGAGAAGGAUGCUCGGAGACCGUCUCUCGAGAAACAUAGAAAAGAAAAGCCUUUUAAAACCGGGAGAGGCAGAAUUUCCACUCCUGAAAGAAAACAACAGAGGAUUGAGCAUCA | 0.486 |
| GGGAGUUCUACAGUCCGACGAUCAUGGUGCAAAAUGUGAGCUUCAAGUAUACAAAAGAUGGGCCUUGCAUCUACAAUAAUCUAGAAUUUGGAAUUGACCUUGACACACGAGUGGCUCUGGUAGGGCCCAAUGGAGCAGGGAAGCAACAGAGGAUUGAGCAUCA | 3.14 |
| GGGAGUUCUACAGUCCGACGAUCUGAGCUGUCUGCCCUUCCGGAAACCCAACCUGCAAUCAACUGCAAAUCAAAUUCUUCACAUUCCAGCUACAGUCUUUCUUUCCCCAUUGAAUCUCAGUCCCUGGCCAUGUGGUCAAGGUGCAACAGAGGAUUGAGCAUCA | 0.221 |
| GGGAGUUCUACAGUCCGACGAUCCAAGCUGAACAGCUUGCUGCUGAGACUGAGGGCAUCUCAGAGCUUCCCCAUGUGGAACGGAACUUACAGGAGAUCCAGCAGGCGGGAGAGCGCCUGCGUUCCCGUACCCUAACACGCACGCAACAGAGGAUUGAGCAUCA | 0.112 |
| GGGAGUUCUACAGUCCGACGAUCCUGCGCUUUUACACGGCCCCGCCUGGCCCCCGGCUCGCCCUAUGUUUCGUGGACAUCCGCCGGUUCGGCCGCUGGGACCUUGGGGGAAAGUGGCAGCCGGGCCGCGGGCCCUGUGUCUUGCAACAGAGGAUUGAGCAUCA | 0.109 |
| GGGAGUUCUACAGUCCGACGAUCGAAAAGGAAAAUCUGCAAAGAACUUUCCUGCUUACAACCUCAAGUAAAGAAGAUACUUGUUUUUUAAAGGAGCAACUUCGUAAAGCAGAGGAACAGGUUCAGGCAACUCGGCAAGAAGUUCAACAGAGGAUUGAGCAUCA | 0.11 |

Sample 3
Target: Prothrombin, mature alpha-thrombin (F2, Homo sapiens, UniProt P00734)
Method: aptamer microarray, sandwich
Form: DNA with 2'F-ANA
Medium: in vitro
Concentration: 200 nM
Notes: whole 15-mer aptamer, many near background
With: Cy3 exosite-II aptamer, 400 nM
Direction: higher = stronger binding
Strand: GGTTGGTGTGGTTGG
| Modification | mean fluorescence intensity [a.u.] |
| --- | --- |
| 2'F-ANA at 1 3 7 8 9 10 14 | 60.3 |
| 2'F-ANA at 1 2 5 7 8 9 10 13 14 | 77.2 |
| 2'F-ANA at 2 3 4 5 6 7 9 10 11 12 13 | 57.2 |
| 2'F-ANA at 1 4 6 7 9 10 11 12 13 15 | 51.5 |
| 2'F-ANA at 1 3 4 6 9 | 173 |
| 2'F-ANA at 1 2 4 6 7 8 10 12 13 | 55.8 |
| 2'F-ANA at 1 2 4 5 6 7 8 9 10 11 12 13 14 15 | 60.2 |
| 2'F-ANA at 4 6 7 12 13 14 | 107 |
| 2'F-ANA at 1 4 12 14 | 73.8 |
| 2'F-ANA at 2 3 4 6 11 13 | 383 |
| 2'F-ANA at 1 4 5 6 7 10 12 15 | 46.1 |
| 2'F-ANA at 2 7 9 10 13 15 | 117 |
| 2'F-ANA at 1 3 6 7 9 10 14 15 | 60.4 |
| 2'F-ANA at 2 4 5 6 11 12 13 15 | 73 |
| 2'F-ANA at 1 2 4 7 9 15 | 128 |
| 2'F-ANA at 1 7 8 10 11 12 13 15 | 84 |
| 2'F-ANA at 2 4 5 8 10 12 13 | 57.9 |
| 2'F-ANA at 1 2 3 4 6 9 10 11 13 14 | 127 |
| 2'F-ANA at 2 3 4 5 6 7 11 12 14 | 124 |
| 2'F-ANA at 1 3 4 5 6 8 9 10 12 15 | 48.7 |

Sample 4
Target: Interferon regulatory factor 7, full length, phosphomimetic (IRF7, Homo sapiens, UniProt Q92985, residues 1-503, S101K/S471D/S472D/S475D/S476D/S477D/S483D/S484D/S487D)
Method: protein-binding microarray
Form: double-stranded DNA, one strand shown
Medium: in vitro
Concentration: 250 nM
Notes: 60-bp whole probe
With: salmon DNA 0.4 mg/ml
Relative to: random background probes
Direction: higher = stronger binding
Shared flanks, not repeated: GCCTAGCAC … GTCTTGATTCGCTTGACGCTGCTG
Residues (chain): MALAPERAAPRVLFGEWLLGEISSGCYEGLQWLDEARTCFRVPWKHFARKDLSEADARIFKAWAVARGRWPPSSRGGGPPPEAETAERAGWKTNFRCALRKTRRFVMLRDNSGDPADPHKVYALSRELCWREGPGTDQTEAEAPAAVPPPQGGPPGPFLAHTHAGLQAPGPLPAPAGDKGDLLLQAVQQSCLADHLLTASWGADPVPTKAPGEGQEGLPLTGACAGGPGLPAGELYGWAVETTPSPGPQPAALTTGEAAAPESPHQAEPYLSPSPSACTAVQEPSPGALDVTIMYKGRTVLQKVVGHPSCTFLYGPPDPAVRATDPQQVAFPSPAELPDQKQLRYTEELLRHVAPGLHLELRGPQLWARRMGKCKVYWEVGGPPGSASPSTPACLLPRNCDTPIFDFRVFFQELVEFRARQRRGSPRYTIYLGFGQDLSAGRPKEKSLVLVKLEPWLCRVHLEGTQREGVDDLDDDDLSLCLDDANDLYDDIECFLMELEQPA
| Strand | log fluorescence |
| --- | --- |
| CTAGGTCTCCTTTTCCTTTAGTGCTAG | 2.24 z-score |
| TTAAAACTGAGACTGGATTAGTGCTAG | -0.0764 z-score |
| TTAGATCTCCGACTGGATTAGTGCTAG | -0.137 z-score |
| TTAGGACTGGGGACTGGGTCAGTGCTA | -0.56 z-score |
| GACGGTCTGCTACTGCTGACGTGCTAG | -0.803 z-score |
| TTAGGTATCGGTATCGGTTGGTGCTAG | 2.55 z-score |
| TTAGGTTTCGGCCTGGGTTAGTGCTAG | 2.75 z-score |
| GACGATCTCATACTGGAGACGTGCTAG | -0.28 z-score |
| GACGGTTTCCTTATCTTGACGTGCTAG | 2.73 z-score |
| AGCAGTTGGACCTCTCAGCCAGTGCTA | -1.09 z-score |
| GACGAACTGAGTCACGAGACGTGCTAG | 0.119 z-score |
| GACGGTATCGGTCTCGGGTCGTGCTAG | 1.51 z-score |
| GACGGTATCCTTCTCCGGACGTGCTAG | 0.3 z-score |
| GACGGTTTCTTTTTCCTGACGTGCTAG | 6.3 z-score |
| GACGATCTCGGTCTCGGGACGTGCTAG | 0.111 z-score |
| TTAGGTATCGGGATTGGGTTAGTGCTA | 0.632 z-score |
| GACGGTTTCGGACTGCGGACGTGCTAG | 5.06 z-score |
| GACGGTTTGGGTATCGGGACGTGCTAG | 0.0588 z-score |
| TTAGGACTGCTTATCCTTAAGTGCTAG | 0.446 z-score |
| TCACTTTTATTTTTTTTACTGTGCTAG | 0.976 z-score |
| AACGGACTGGGGTATCGGGACGTGCTA | -0.493 z-score |

Excerpt of the above (sample 4):
| Strand | log fluorescence |
| --- | --- |
| GACGGTATCGGTCTCGGGTCGTGCTAG | 1.51 z-score |
| GACGGTATCCTTCTCCGGACGTGCTAG | 0.3 z-score |
| GACGGTTTCTTTTTCCTGACGTGCTAG | 6.3 z-score |
| GACGATCTCGGTCTCGGGACGTGCTAG | 0.111 z-score |
| TTAGGTATCGGGATTGGGTTAGTGCTA | 0.632 z-score |
| GACGGTTTCGGACTGCGGACGTGCTAG | 5.06 z-score |
| GACGGTTTGGGTATCGGGACGTGCTAG | 0.0588 z-score |
| TTAGGACTGCTTATCCTTAAGTGCTAG | 0.446 z-score |
| TCACTTTTATTTTTTTTACTGTGCTAG | 0.976 z-score |
| AACGGACTGGGGTATCGGGACGTGCTA | -0.493 z-score |
